# Results gathered from unrelated publications.
# Each line is one published result; not all experiments were run side by side. “And” joins repeats or separate records; there may be more than shown. ± gives the spread as reported.
SMILES,tested on,test,test system,setting,scale,quantity,result
OC(CCN1CCCCC1)(c1ccccc1)C1CC2C=CC1C2 (centres unmarked),,resting-state EEG,healthy elderly humans,"oral, 2 mg, eyes closed, LS mean",,"power, EEG beta, O2-Pz",6.8 µV²
CC(C)n1ncc2c(C(=O)NCC3(C)CNC3)cc(C3CC3)nc21,Enterovirus D68,cytopathic effect,"RD, US/MO/14-18949",1500 nM,,cell protection,102% and 95.9%
O=c1[nH]cc(F)c(=O)[nH]1,THP-1,pyroptotic LDH release,,"2 µM, 40 min, with: LPS then nigericin",,inhibition,8.59%
Fc1cc(-c2c(-c3ccccn3)nc3n2CCC3)ccn1,Leishmania infantum,,"macrophages, MHOM/MA(BE)/67/ITMAP263, amastigote",,,IC50,32.5 µM and 25.7 µM
COc1c(O)c(C)cc2c1C(=O)c1c(cc(O)c(O)c1O)C2=O,HK-2 co-cultured with HepaRG,MTT,,"16.67 µM, 48 h",reference: untreated control,viability,87.1 ± 5.84%
Fc1ccc(Nc2c(-c3ccc(F)cn3)nc3ccccn23)cc1,Leishmania infantum,,"macrophages, MHOM/MA(BE)/67/ITMAP263, amastigote",,,IC50,24.5 µM and 5.66 µM
Nc1nc(OCc2ccccc2)c2nc[nH]c2n1,THP-1,pyroptotic LDH release,,"2 µM, 40 min, with: LPS then nigericin",,inhibition,-36.2%
CN(c1ccc(F)cc1)c1c(-c2ccc(F)cn2)nc2ccccn12,Leishmania infantum,,"macrophages, MHOM/MA(BE)/67/ITMAP263, amastigote",,,IC50,0.76 µM and 2.52 µM
O=C(O)c1cc(O)c2c(c1)C(=O)c1cccc(O[C@@H]3O[C@H](CO)[C@@H](O)[C@H](O)[C@H]3O)c1C2=O,HK-2 co-cultured with HepaRG,MTT,,"16.67 µM, 48 h",reference: untreated control,cell viability,91 ± 3.49%
Cn1cc(-c2ccc(-c3cncc(Cl)c3N3CCC4(CCNC4=O)CC3)cc2)cn1,COLO 205,"gene expression, microarray, refers to: TLE1 mRNA",,"concentration not given, 6 h",reference: untreated cells,log2 fold change,2.57
NCC(N)C(=O)O (centres unmarked),THP-1,pyroptotic LDH release,,"2 µM, 40 min, with: LPS then nigericin",,inhibition,2.98%
Cc1nc2cc(-c3c(-c4ccccn4)nc4n3CCC4)ccc2s1,Leishmania infantum,,"macrophages, MHOM/MA(BE)/67/ITMAP263, amastigote",,,IC50,6.35 µM and 1.74 µM
Cc1cccc(C(=O)O)c1N,THP-1,pyroptotic LDH release,,"2 µM, 40 min, with: LPS then nigericin",,inhibition,27%
O=C(O)CNC(=O)Cc1ccccc1,,,"ventricular cardiomyocytes, C57BL/6 mouse","dose not given, 0.072 s",,sarcomere length,1.72 µm

# Excerpt of the above:
SMILES,tested on,test,test system,setting,scale,quantity,result
CN(c1ccc(F)cc1)c1c(-c2ccc(F)cn2)nc2ccccn12,Leishmania infantum,,"macrophages, MHOM/MA(BE)/67/ITMAP263, amastigote",,,IC50,0.76 µM and 2.52 µM
O=C(O)c1cc(O)c2c(c1)C(=O)c1cccc(O[C@@H]3O[C@H](CO)[C@@H](O)[C@H](O)[C@H]3O)c1C2=O,HK-2 co-cultured with HepaRG,MTT,,"16.67 µM, 48 h",reference: untreated control,cell viability,91 ± 3.49%
